Published values from different studies.
Parts stem from different laboratories: compare values within a part only.
Chain of UniProt Q9UF33 (whole entry, looked up): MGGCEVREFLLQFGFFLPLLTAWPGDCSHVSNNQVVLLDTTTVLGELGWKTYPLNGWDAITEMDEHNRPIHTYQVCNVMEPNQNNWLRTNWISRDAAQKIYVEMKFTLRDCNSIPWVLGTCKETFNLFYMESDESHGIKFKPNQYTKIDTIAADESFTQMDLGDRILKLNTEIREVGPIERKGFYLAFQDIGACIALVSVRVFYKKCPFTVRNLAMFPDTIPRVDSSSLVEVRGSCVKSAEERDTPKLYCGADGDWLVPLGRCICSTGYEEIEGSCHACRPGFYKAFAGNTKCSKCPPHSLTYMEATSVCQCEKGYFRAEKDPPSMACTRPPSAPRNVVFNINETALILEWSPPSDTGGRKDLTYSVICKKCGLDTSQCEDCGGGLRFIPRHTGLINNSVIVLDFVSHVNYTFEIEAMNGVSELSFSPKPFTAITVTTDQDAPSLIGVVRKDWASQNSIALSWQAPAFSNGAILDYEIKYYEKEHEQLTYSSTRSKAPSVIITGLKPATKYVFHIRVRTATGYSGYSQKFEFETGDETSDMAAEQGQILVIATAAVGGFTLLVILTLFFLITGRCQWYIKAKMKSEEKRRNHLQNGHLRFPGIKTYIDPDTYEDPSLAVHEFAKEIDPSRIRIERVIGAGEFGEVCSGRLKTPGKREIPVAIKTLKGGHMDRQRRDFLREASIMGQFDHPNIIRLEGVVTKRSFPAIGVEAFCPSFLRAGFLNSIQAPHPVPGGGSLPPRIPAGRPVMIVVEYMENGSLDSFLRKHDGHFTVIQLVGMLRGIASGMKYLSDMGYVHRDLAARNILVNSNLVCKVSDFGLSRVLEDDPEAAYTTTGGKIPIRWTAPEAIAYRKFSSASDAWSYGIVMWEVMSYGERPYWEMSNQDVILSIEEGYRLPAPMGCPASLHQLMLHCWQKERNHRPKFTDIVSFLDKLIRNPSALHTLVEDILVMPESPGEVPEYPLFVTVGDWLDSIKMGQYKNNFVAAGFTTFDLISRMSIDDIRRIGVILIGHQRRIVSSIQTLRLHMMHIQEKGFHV
Chain of UniProt Q9UM73 (whole entry, unmodified, looked up): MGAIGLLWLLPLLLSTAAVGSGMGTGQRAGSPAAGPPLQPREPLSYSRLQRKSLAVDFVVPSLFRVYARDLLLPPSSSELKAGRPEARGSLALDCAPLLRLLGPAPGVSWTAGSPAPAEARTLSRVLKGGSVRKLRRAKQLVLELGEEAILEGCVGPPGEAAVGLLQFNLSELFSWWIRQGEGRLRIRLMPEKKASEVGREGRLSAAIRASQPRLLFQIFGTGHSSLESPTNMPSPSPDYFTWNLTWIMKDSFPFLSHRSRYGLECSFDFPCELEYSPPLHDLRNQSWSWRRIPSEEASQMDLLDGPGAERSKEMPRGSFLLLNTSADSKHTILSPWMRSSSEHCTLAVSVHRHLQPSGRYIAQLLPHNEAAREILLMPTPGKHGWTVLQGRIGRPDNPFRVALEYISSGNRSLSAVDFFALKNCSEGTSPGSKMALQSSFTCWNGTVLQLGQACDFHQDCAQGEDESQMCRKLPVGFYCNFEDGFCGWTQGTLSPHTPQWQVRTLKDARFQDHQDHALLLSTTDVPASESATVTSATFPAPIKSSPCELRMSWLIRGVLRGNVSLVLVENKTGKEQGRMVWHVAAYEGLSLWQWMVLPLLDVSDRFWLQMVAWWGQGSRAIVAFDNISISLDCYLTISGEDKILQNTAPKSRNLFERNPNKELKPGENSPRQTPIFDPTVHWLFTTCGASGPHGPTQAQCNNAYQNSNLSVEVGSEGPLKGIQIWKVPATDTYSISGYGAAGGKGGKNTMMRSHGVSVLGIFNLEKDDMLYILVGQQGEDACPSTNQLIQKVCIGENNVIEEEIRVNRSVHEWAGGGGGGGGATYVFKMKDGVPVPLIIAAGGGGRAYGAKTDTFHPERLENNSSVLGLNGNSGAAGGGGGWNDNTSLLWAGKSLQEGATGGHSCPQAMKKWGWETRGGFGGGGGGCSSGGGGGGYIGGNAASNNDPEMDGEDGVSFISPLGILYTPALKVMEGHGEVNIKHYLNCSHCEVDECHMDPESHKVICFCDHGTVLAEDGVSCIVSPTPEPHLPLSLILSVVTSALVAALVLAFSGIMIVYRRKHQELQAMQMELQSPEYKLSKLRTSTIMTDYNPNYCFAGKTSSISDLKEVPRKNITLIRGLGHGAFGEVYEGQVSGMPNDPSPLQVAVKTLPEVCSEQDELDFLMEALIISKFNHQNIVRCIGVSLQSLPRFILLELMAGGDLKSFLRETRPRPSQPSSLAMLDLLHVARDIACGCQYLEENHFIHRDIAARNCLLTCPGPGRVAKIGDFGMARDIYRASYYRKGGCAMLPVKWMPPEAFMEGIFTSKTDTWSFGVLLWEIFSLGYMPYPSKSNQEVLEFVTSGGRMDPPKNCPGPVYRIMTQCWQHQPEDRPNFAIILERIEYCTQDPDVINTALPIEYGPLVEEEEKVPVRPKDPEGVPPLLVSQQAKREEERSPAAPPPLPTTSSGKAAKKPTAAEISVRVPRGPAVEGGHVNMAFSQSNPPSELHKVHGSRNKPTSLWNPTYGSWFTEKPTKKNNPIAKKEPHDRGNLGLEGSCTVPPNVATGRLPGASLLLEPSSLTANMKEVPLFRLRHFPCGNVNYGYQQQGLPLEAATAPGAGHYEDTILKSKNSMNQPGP
Chain of UniProt Q9Y3S1 (whole entry, looked up): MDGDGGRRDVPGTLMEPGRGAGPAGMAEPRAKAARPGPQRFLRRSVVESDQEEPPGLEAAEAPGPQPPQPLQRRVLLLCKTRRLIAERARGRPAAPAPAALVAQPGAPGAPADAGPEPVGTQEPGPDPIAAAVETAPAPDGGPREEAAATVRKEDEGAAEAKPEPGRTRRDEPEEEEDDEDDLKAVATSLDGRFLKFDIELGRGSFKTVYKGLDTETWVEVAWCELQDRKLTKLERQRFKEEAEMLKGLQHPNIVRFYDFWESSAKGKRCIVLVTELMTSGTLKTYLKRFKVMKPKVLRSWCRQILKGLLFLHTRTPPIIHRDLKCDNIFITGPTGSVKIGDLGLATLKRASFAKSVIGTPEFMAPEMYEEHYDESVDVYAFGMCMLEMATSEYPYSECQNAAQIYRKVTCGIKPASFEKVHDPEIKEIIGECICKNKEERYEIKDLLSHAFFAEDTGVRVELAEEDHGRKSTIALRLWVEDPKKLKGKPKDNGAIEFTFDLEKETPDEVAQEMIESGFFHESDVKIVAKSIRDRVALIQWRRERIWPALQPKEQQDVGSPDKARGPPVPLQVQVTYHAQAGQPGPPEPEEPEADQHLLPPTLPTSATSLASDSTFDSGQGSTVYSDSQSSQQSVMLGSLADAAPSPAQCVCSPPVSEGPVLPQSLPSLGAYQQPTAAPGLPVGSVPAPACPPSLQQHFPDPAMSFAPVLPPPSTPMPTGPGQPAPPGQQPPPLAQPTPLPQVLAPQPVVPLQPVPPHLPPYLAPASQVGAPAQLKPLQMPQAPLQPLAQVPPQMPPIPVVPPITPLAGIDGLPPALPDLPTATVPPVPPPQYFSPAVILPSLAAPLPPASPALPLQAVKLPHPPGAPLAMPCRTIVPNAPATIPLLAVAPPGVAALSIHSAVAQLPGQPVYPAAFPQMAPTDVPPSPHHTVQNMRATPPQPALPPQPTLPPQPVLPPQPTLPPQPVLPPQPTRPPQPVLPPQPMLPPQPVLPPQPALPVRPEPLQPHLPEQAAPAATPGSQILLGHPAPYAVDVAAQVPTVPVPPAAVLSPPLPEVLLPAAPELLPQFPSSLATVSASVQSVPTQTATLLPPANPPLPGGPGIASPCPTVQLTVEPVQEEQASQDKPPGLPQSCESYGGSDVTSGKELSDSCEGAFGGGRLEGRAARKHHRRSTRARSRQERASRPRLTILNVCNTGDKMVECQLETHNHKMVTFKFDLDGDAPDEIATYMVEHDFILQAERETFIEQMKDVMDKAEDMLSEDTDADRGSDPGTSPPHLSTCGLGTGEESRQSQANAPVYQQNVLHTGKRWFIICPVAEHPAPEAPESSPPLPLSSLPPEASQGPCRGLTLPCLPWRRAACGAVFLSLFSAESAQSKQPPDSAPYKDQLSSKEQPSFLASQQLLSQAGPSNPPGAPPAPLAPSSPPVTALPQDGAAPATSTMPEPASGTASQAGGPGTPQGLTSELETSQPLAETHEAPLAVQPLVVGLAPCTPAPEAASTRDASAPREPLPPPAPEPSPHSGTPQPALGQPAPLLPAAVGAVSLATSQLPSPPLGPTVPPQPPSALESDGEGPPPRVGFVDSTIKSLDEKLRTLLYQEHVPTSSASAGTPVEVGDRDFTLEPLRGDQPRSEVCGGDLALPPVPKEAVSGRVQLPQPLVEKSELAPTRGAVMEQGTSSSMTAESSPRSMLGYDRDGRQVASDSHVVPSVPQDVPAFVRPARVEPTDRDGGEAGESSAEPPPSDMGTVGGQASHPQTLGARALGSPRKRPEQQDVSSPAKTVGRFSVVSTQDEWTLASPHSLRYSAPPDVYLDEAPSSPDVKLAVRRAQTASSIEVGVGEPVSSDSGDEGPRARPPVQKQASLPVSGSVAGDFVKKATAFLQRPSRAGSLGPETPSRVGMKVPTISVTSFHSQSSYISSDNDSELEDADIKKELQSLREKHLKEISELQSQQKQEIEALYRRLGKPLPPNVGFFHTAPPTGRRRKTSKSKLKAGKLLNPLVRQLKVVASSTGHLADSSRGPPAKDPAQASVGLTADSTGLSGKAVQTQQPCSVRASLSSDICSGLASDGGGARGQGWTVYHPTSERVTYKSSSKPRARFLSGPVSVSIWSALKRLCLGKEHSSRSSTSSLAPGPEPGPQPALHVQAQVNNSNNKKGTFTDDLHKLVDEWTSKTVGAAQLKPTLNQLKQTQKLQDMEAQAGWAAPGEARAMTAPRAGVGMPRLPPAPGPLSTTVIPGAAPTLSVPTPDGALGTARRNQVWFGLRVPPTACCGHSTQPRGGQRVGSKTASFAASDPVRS

Study 1 — cell line: HaCaT; tested at: 100 µM; time: 18 h
Structure (SMILES) | viability [%]
CC(=O)O[C@H]1Cc2ccccc2N(C(N)=O)c2ccccc21 | 120
COc1ccc(-c2nc3ccc(C4=NNC(=O)CC4C)cc3[nH]2)cc1 (stereo not shown) | 28.2
CC(C)(C#N)c1cc(Cn2cncn2)cc(C(C)(C)C#N)c1 | 93.4
O=C(Nc1ccc(Cl)cc1)c1cc(Br)ccc1O | 33.5
NCCCC(N)(C(=O)O)C(F)F (stereo not shown) | 99
NC(=O)c1ncn([C@@H]2O[C@H](CO)[C@@H](O)[C@H]2O)n1 | 116
CC[C@H]1[C@@H](O)[C@@H]2[C@H](CC[C@]3(C)[C@@H]([C@H](C)CCC(=O)O)CC[C@@H]23)[C@@]2(C)CC[C@@H](O)C[C@@H]12 | 38.2

Study 2 — effect on: enzyme activity; action: inhibitor; tested at: 0.5 µM; reference: control
Structure (SMILES): COc1cc2ncnc(N3CCN(C(=O)Nc4ccc(Oc5ccccc5)cc4)CC3)c2cc1OC
target | remaining activity [%]
Protein kinase C zeta type (PRKCZ, Homo sapiens, UniProt Q05513) | 96
Casein kinase I isoform delta (CSNK1D, Homo sapiens, UniProt P48730) | 103
Activin receptor type-1-like (ACVRL1, Homo sapiens, UniProt P37023) | 93
Cyclin-dependent kinase 2, with cyclin E (CDK2, Homo sapiens, UniProt P24941) | 92.1
Maternal embryonic leucine zipper kinase (MELK, Homo sapiens, UniProt Q14680) | 94.9
Serine/threonine-protein kinase PAK 6 (PAK6, Homo sapiens, UniProt Q9NQU5) | 95.2
Dual specificity tyrosine-phosphorylation-regulated kinase 1A (DYRK1A, Homo sapiens, UniProt Q13627) | 97.9
Serine/threonine-protein kinase pim-1 (PIM1, Homo sapiens, UniProt P11309) | 102
Serine/threonine-protein kinase Sgk2 (SGK2, Homo sapiens, UniProt Q9HBY8) | 96.7
Serine/threonine-protein kinase MARK1 (MARK1, Homo sapiens, UniProt Q9P0L2) | 99.1
Ephrin type-A receptor 6 (EPHA6, Homo sapiens, UniProt Q9UF33) | 89.6
Ephrin type-A receptor 2 (EPHA2, Homo sapiens, UniProt P29317) | 95.7
SRSF protein kinase 1 (SRPK1, Homo sapiens, UniProt Q96SB4) | 97.5
Mitogen-activated protein kinase kinase kinase 20 (MAP3K20, Homo sapiens, UniProt Q9NYL2) | 96.2
Dual specificity protein kinase CLK1 (CLK1, Homo sapiens, UniProt P49759) | 89.4
Tyrosine-protein kinase Tec (TEC, Homo sapiens, UniProt P42680) | 101
Tyrosine-protein kinase JAK1 (JAK1, Homo sapiens, UniProt P23458) | 96.5
Tyrosine-protein kinase Fes/Fps (FES, Homo sapiens, UniProt P07332) | 98.3
Protein kinase C theta type (PRKCQ, Homo sapiens, UniProt Q04759) | 97.3
Tyrosine-protein kinase receptor TYRO3 (TYRO3, Homo sapiens, UniProt Q06418) | 99.6
Muscle, skeletal receptor tyrosine-protein kinase (MUSK, Homo sapiens, UniProt O15146) | 87.4
Tyrosine-protein kinase JAK2 (JAK2, Homo sapiens, UniProt O60674) | 99.3
Calcium/calmodulin-dependent protein kinase kinase 1 (CAMKK1, Homo sapiens, UniProt Q8N5S9) | 92.9
Cyclin-dependent kinase 5, with p35 (CDK5, Homo sapiens, UniProt Q00535) | 99.8
Serine/threonine-protein kinase PAK 1 (PAK1, Homo sapiens, UniProt Q13153) | 91.8

Study 3 — host: human; sample: microsomes or S9; tested at: 2 µM; time: 0.5 h
Compound | remaining compound
O=C(NCc1ccccc1)c1cnc2ccc(S(=O)(=O)Nc3ccc4c(c3)OCCO4)cc2c1O | 4.91%
Cc1nc(C(C)C)sc1C(C)NCC1CCCS1(=O)=O (stereo not shown) | 79%
CC1=C(C#N)C(c2ccc(C(C)C)cc2)C2=C(O)c3ccccc3C2=N1 (stereo not shown) | 3.97%
CS(=O)(=O)N1CCC(Nc2nc(Cl)ncc2F)C1 (stereo not shown) | 98.4%

Study 4 — tested at: 1 µM
Compound: CCC(=O)N[C@@H]1CC[C@H](C(=O)N(C)c2ccc(-c3nc4ccccc4o3)cc2)C1
target | effect on | method | remaining binding [%]
Proto-oncogene tyrosine-protein kinase receptor Ret (RET, Homo sapiens, UniProt P07949, M918T) | cell-free assay | competition with immobilised ligand | 100
Tyrosine-protein kinase SYK (SYK, Homo sapiens, UniProt P43405) | cell-free assay | competition with immobilised ligand | 100
ALK tyrosine kinase receptor (ALK, Homo sapiens, UniProt Q9UM73, C1156Y) | cell-free assay | competition with immobilised ligand | 100
Ephrin type-A receptor 6 (EPHA6, Homo sapiens, UniProt Q9UF33) | cell-free assay | competition with immobilised ligand | 100
Serine/threonine-protein kinase WNK2 (WNK2, Homo sapiens, UniProt Q9Y3S1) | cell-free assay | competition with immobilised ligand | 92
Tyrosine-protein kinase FRK (FRK, Homo sapiens, UniProt P42685) | cell-free assay | competition with immobilised ligand | 100
Serine/threonine-protein kinase SIK1 (SIK1, Homo sapiens, UniProt P57059) | – | competition binding | 95
Bone morphogenetic protein receptor type-1B (BMPR1B, Homo sapiens, UniProt O00238) | cell-free assay | competition with immobilised ligand | 100

Study 5 — host: female C57BL/6 mouse; sample: plasma; route: oral; dose: 10 mg/kg; time: 1 h
Compound | concentration [nM]
CCOC(=O)CN(C(=O)c1ccn2ncc(-c3ccc(C(=O)NC)cc3)c2c1)c1ccc(Cl)cc1 | 293
COC(=O)c1cc(Cl)ccc1N(C)C(=O)c1ccn2ncc(-c3ccc(C(N)=O)cc3)c2c1 | 32.5
CN(C(=O)c1ccn2ncc(-c3ccc(C(N)=O)cc3)c2c1)c1ccc(C#N)cn1 | 659

Study 6 — action: inhibitor; tested at: 10 µM; reference: control
Target: Diamine acetyltransferase 1 (Homo sapiens, UniProt P21673)
Construct (P21673 1-171): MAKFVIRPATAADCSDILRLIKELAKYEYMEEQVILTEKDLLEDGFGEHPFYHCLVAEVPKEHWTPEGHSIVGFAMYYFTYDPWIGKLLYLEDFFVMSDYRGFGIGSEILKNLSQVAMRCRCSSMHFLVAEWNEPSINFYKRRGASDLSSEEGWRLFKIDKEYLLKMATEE
Compound | remaining activity
CC(=O)CC/C=C(\C)CC/C=C(\C)CCC=C(C)C | 103%
O=c1c(O)c(-c2ccc(O)cc2)oc2cc(O)cc(O)c12 | 88.6%
COc1ccc2ccc(=O)oc2c1 | 94.4%
CC(C)=CCOc1c2ccoc2cc2oc(=O)ccc12 | 118%
COc1ccc2cc3[n+](cc2c1OC)CCc1cc2c(cc1-3)OCO2 | 73.7%

For quick reference, copied from above (study 5):
Compound | concentration [nM]
CCOC(=O)CN(C(=O)c1ccn2ncc(-c3ccc(C(=O)NC)cc3)c2c1)c1ccc(Cl)cc1 | 293
COC(=O)c1cc(Cl)ccc1N(C)C(=O)c1ccn2ncc(-c3ccc(C(N)=O)cc3)c2c1 | 32.5
CN(C(=O)c1ccn2ncc(-c3ccc(C(N)=O)cc3)c2c1)c1ccc(C#N)cn1 | 659
